Assay results from different studies.
A part holds a random share of what one study measured.

Block 1
Target: human cyclin A2
Read-out: peptide binding
Method: competitive growth sequencing
Form: peptide
Organism: Saccharomyces cerevisiae
Strain: cyclin A2-Cln2 fusion strain
Tested at: concentration not given
Notes: peptide tiling library
Relative to: unfused Cln2 strain
Direction: direction not given
Sequence	binding score
RQVRRDLFAF	0.716
KPCHRAVACFDSTTAP	-0.829
SVKQAGPAFEHASNND	0.226
SSPSVRAQAFVTVVKT	-0.143
KRNLLNEFDRII	2.31
PPKPLAKARFDIEGSD	-0.528

Block 2
Target: RNA binding protein fox-1 homolog 2, RRM domain, GST-SBP tag (RBFOX2, Homo sapiens, UniProt O43251-10, residues 100-194)
Method: RNA Bind-n-Seq
Form: RNA
Medium: in vitro
Tested at: 365 nM
Notes: natural RNA segment, single round, ends assumed
Relative to: no-protein control
Direction: higher = stronger binding
All sequences stand within: GGGAGUUCUACAGUCCGACGAUC … UGGAAUUCUCGGGUGCCAA
Target sequence (chain): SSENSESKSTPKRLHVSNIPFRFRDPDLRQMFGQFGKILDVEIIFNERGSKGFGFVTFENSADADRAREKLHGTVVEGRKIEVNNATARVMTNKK
Strand	RBNS enrichment (R)
CAGAUCCUGCUGGAGGGUGGUUCUCUUUAGCACUGUCCACUUUGAAUGCCGAGUGUCAUAAGAAAUUGCAUGCUAUCUUCACUCACAAUCCUGCCCUUCCCUCACAGAGC	25.2
GGGCAAGUCUGAUCUCAGCACCCACGAGCCACAUCCUGGGCCAAGCAACAGUAACCCUUGCCAAGCAACGACGGGGUAGAAUUUCUAUGUUCCCAAAUUCAGCAGUAACG	0.257
UGUUUUUUCUGGUCCCUGAGUCUGGCAUUUCUGUCUGUGACUUAGCUAUGUUUCUGAUGCCAAUCACACUAGCACCAUUACAUGCUGGGCAGGUGCUGGGCAGCACAGAC	0.425
AGCCCCUGGCGACAAGCAGUGUCUAGAAGAGGAUCUGGAGCCAGGCAGACUGGCUGCUUUUAUUUUGAAGUUCCCAAGAGGAAUGGAGGGAUGCUUUAAGGGUGGGAACA	0.577
UUUCUGUGACUGUCUUAGGUGACGUGUAGCCCUCUUCCGUUUUUUCACCCAACAACUUCCUCUGUCCUGCUGCACGGUCCAGAGUCUGGGACCGACUUUGUUUCUUUGUU	0.759
UUGAUGGGCAAGCCUUGCUGCUGCUCAAGGAGGACCACCUAAUGAGCGCCAUGAACAUCAAGCUAGGGCCCGCCCUGAAGAUCUACGCACGCAUCAGCAUGCUCAAGGAC	1.13
AUCUUCCUGAUCGUGGGUGAGGGAGGCCUUCCUGCUUGUUCCUUCGCAUUCUCGUGGUCUAGGCUGGGGGAGGGGUUAUCCACCUGUAGCUCUUUCAAUUGAGGUGGUUC	1.05
CGCCUGUGUGAACCAGGCACAGGAAAACAAACUCCUACAGGCUGUCAUGCUCCUGCAGGAAGAUGAGUCAUUUUUAGCACCACCUGAAGACUUUUAUUUAAAACAGCUUU	0.443

Block 3
Target: Histone acetyltransferase KAT6A, both winged helices, GST fusion (KAT6A, Homo sapiens, UniProt Q92794, residues 1-181)
Method: protein binding microarray
Form: double-stranded DNA, one strand shown
Medium: in vitro
Tested at: not given
Notes: 8-mer, flanks averaged, mean of 2 arrays, mostly near background
Relative to: not given
Direction: higher = stronger binding
Residues (chain): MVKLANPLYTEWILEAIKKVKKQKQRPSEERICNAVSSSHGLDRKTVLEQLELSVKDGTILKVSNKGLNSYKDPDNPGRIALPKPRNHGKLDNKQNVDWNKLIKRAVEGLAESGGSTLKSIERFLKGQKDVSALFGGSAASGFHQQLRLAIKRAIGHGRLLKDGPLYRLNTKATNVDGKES
Strand	E-score
AAAGACAG	-0.0907
CCCCCCGC	0.0255
ACTTAACA	-0.121
CGCCTGTA	0.0641
CCTAGGTA	-0.131
AGCACAAT	-0.193

Single results of other studies
Molecule	target	assay	test system	setting	scale	quantity	result
PhoQ, residues 284 288 289 292 302 303 TLASMF	PhoP, residues 12 14 15 18 19 SQCLL (Escherichia coli, UniProt P23836)	Sort-seq, refers to: YFP reporter	E. coli	PhoQ-PhoP variant library, added: 10 µM Mg2+	relative to: high Mg2+ state, higher = stronger signaling	fold induction	2.17

A few entries again (block 3):
Strand	E-score
CCCCCCGC	0.0255
ACTTAACA	-0.121
